Measurements pooled from the literature.
Protocols differ between the studies behind these lines. Several values in a cell are separate wells, animals, samples, runs or records. ± marks the error that the study gave. Values after ≈ are worked out from the molar mass of the structure shown.

Molecule = COc1cc(/C=C/c2ccc(N)cc2)cc(OC)c1; system = rat, serum; setting = oral, 40 mg/kg daily for three days, 24 h, total; endpoint = concentration; result = 640 ± 34 ng/mL
Molecule = CC(C)(CC(=O)N1CCCC1)NCC(=O)N1C[C@@H](F)C[C@H]1C#N; system = Chinese type 2 diabetes patients, plasma; setting = oral, 100 mg once daily, multiple doses; endpoint = AUC(0-inf) at steady state; result = 1520 ng·h/mL
Molecule = CCCC[C@H](NC(=O)CN1CCN(CC(=O)O)CCN(CC(=O)O)CCN(CC(=O)O)CC1)C(=O)N[C@H]1CC(=O)NCCCC[C@@H](C(N)=O)NC(=O)[C@H](Cc2c[nH]c3ccccc23)NC(=O)[C@H](CCCNC(=N)N)NC(=O)[C@@H](Cc2ccccc2)NC(=O)[C@H](Cc2c[nH]cn2)NC1=O [indium-111 labelled]; system = female C57 mice, B16/F1 melanoma, urine; setting = intravenous, 0.037 MBq, 4 h; endpoint = excreted dose; result = 84.6 ± 5.21%
Molecule = GMMYRS; assay = substrate, gel electrophoresis; system = peptide, mouse, PyMT tumour, PyMT tumour tissue extract; setting = 5 µM, 16 h, 37 °C, 2% extract, 1 mM ZnCl2; endpoint = peptide cleavage; result = > 80% and > 90%
Molecule = CNc1nc(Nc2ccc(-n3cnc(C)n3)c(OC)c2)nc2c1CC[C@H]2c1ccc(F)cc1; system = human, plasma; setting = oral, 10 mg, single dose, healthy volunteers; endpoint = AUC(0-inf); result = 153 ng·h/mL
Molecule = O=C(O)CCCCC(=O)O; system = human hemodialysis patients, plasma; setting = pre-treatment; scale = relative to: hemodialysis over normal subjects; endpoint = total plasma concentration ratio; result = 13
Molecule = CCCC[C@H](NC(C)=O)C(=O)N[C@H]1CCC(=O)NC[C@@H](C(=O)N[C@@H](Cc2c[nH]c3ccccc23)C(N)=O)NC(=O)[C@H](CCCNC(=N)N)NC(=O)[C@@H](Cc2ccccc2)NC(=O)[C@H](Cc2c[nH]cn2)NC1=O; system = beagle dog, female, plasma; setting = subcutaneous, 8.0 mg/kg daily, day 28; endpoint = AUC(0-last); result = 1250 ng·h/mL
Molecule = CCOc1ccc(Cc2cc([C@]34OC[C@](CO)(O3)[C@@H](O)[C@H](O)[C@H]4O)ccc2Cl)cc1; system = human type 2 diabetes, normal renal function, urine; setting = oral, 15 mg, 0-96 h; scale = relative to: dose; endpoint = urinary excretion unchanged; result = 0.995%
Molecule = CC1(C)C2CCC1(C)C(OC(=O)C(O)Cc1ccc(O)c(O)c1)C2 (stereo not drawn); system = Sprague-Dawley rat, plasma; setting = intravenous, 6 mg/kg; endpoint = clearance; result = 269 mL/min/kg
Molecule = C[C@]12CC[C@@H]3c4ccc(O)cc4CC[C@H]3[C@@H]1C[C@@H](O)[C@@H]2O; assay = GC-MS; system = breast cancer women on NSAI, serum; setting = vaginal, 0.03 mg daily, 24 h, day 28; endpoint = minimum serum concentration; result = 0 ng/mL
Molecule = CC(C)=CCc1c(O)c(CC=C(C)C)c2oc3c(O)ccc(O)c3c(=O)c2c1O; system = Balb/c nu/nu mice, HT-29 xenograft, tumour tissue; setting = oral, 901 mg/kg xanthones in diet, 4 weeks after implantation; endpoint = free tumour concentration; result = 320 ± 120 ng/g
Molecule = Cc1nc(-c2ccc(OCC(C)C)c(C#N)c2)sc1C(=O)O; system = pediatric patients under sample A kg, plasma; setting = oral, 20 mg once daily, fed, PopPK post hoc; endpoint = Vz/F at steady state; result = 58.4 ± 15 L
Molecule = C[C@](N)(Cc1ccc(O)c(O)c1)C(=O)O; system = supercritical carbon dioxide; setting = 5 h, 313 K, 27 MPa, density 893.5 kg/m3; endpoint = solubility; result = 271 µg/mL (≈ 1280 µM)
Molecule = NC(=O)N1c2ccccc2C=Cc2ccccc21; assay = shake-flask; system = soybean oil; setting = 37 °C; endpoint = thermodynamic solubility; result = 1.42 ± 0.16 mg/g
Molecule = C[C@@H](O)[C@H]1C(=O)N2C(C(=O)O)=C(S[C@@H]3CN[C@H](C(=O)N(C)C)C3)[C@H](C)[C@H]12; assay = microdialysis; system = pig (Danish Landrace), subcutaneous adipose tissue; setting = iv infusion, 1000 mg over 10 min, MIC 0.25 µg/mL, together with: vancomycin co-administered; endpoint = time above MIC; result = 311 min
Molecule = COC1=CC(=O)C[C@@H](C)[C@]12Oc1c(Cl)c(OC)cc(OC)c1C2=O; assay = shake-flask; system = Captex 355; setting = 37 °C; endpoint = thermodynamic solubility; result = 1 ± 0.04 mg/g
Molecule = CCOc1ccc(Cc2cc([C@@H]3S[C@H](CO)[C@@H](O)[C@H](O)[C@H]3O)c(OC)cc2C)cc1; system = human; setting = oral, 10 mg/day, day 1, before breakfast; endpoint = Vd/F; result = 40.1 ± 8.36 L
Molecule = CC[C@H](C)[C@@H]1NC(=O)[C@H](Cc2ccc(O)cc2)NC(=O)[C@@H](N)CSSC[C@@H](C(=O)N2CCC[C@H]2C(=O)N[C@@H](CC(C)C)C(=O)NCC(N)=O)NC(=O)[C@H](CC(N)=O)NC(=O)[C@H](CCC(N)=O)NC1=O; assay = microdialysis, radioimmunoassay; system = C57BL/6J male mice, wild type, hippocampus extracellular fluid; setting = intraperitoneal, 12 µg total; endpoint = Cmax; result = 2.23 ± 1.07 pg/sample

A few entries again:
Molecule = C[C@](N)(Cc1ccc(O)c(O)c1)C(=O)O; system = supercritical carbon dioxide; setting = 5 h, 313 K, 27 MPa, density 893.5 kg/m3; endpoint = solubility; result = 271 µg/mL (≈ 1280 µM)
